Results gathered from unrelated publications.

COc1cc(CCC(C)=O)ccc1O  IC50 (mouse mAb 1-G12; antibody binding, indirect competitive ELISA; together with: coating antigen 4-OVA): 0.424 µg/mL
Cc1ccc(-c2nnc3ccc(N4CCN(C(=O)c5ccc(Br)o5)CC4)nn23)cc1  IC50 (rat muscarinic M2-M5 receptors; functional response): > 50 µM
CCCCC/C=C/C(=O)CCc1ccc(O)c(OC)c1  IC50 (mouse mAb 1-G12; antibody binding, indirect competitive ELISA; together with: coating antigen 3-OVA): > 4 µg/mL
OC1(C(F)(F)F)CCN(c2nc(Nc3ccnc(C(F)(F)F)c3)nc(-c3cccc(C(F)(F)F)n3)n2)C1 (centres unmarked)  IC50 (IDH2 R172S, human; 2-HG production, inhibitor; SW1353; 72 h): 4.51 µM
COc1ccc(C[C@H]2CO[C@H](c3ccc(OC)c(OC)c3)[C@H]2COC(=O)C2CCCCCC2)cc1OC  IC50 (NF-κB; reporter gene, inhibitor; HEK293 NF-κB-luc; 4 h, together with: TNFα 2 ng/mL): 1.6 µM
COc1cccc(-c2nnc3ccc(N4CCN(C(=O)c5ccc(Br)o5)CC4)nn23)c1  IC50 (rat muscarinic M2-M5 receptors; functional response): > 50 µM
COc1ccc(C[C@H]2CO[C@H](c3ccc(OC)c(OC)c3)[C@H]2COC(=O)C(C)(C)C)cc1OC  IC50 (NF-κB; reporter gene, inhibitor; HEK293 NF-κB-luc; 4 h, together with: TNFα 2 ng/mL): 2.2 µM
CCC/C(=C\C1=C(OC)C(=O)c2ccccc2C1=O)C(=O)NOC  IC50 (NF-κB; reporter gene, inhibitor, luciferase reporter; concentration not given): 5.9 µM
OC(CCCN1CCN(c2ccccn2)CC1)c1ccc(F)cc1 (centres unmarked)  IC50 (mouse anti-AZN monoclonal antibody; antibody binding, competitor, indirect immunochromatographic; pork extract): 0.6 ng/g
CC1=CC2(C)C(=C(C)C3C4CC(C)CC(C)C4C4Oc5ccc(cc5)CC5(O)NC(=O)C(=C(O)C2C43)C5Nc2ncnc3c2ncn3C2OC(CO)C(O)C2O)C1C (centres unmarked)  IC50 (NF-κB; reporter gene, inhibitor; MDA-MB-231 NF-κB luciferase reporter; 2 h, together with: LPS 1 µg/mL): 15.5 µM
CCC/C(=C\C1=C(C(F)(F)F)C(=O)c2ccccc2C1=O)C(=O)N(CC)CC  IC50 (NF-κB; reporter gene, inhibitor, luciferase reporter; concentration not given): 5.6 µM

Repeated from above:
CC1=CC2(C)C(=C(C)C3C4CC(C)CC(C)C4C4Oc5ccc(cc5)CC5(O)NC(=O)C(=C(O)C2C43)C5Nc2ncnc3c2ncn3C2OC(CO)C(O)C2O)C1C (centres unmarked)  IC50 (NF-κB; reporter gene, inhibitor; MDA-MB-231 NF-κB luciferase reporter; 2 h, together with: LPS 1 µg/mL): 15.5 µM
